Experimental data gathered from unrelated publications.
Protocols differ between the studies behind these lines. ± marks the error that the study gave. ≈ marks a conversion by molar mass, not a printed value.

CCC1(c2ccccc2)NC(=O)N(Cc2ccccc2)C1=O (single isomer, unassigned; (+)) — inhibition (inhibitor, measured: 11-hydroxy-THC; human liver microsomes, six donors; 5 µM, added: THC 2 µM, tienilic acid, CYP3cide): ≤ 17%
CS(=O)(=O)CCCn1c(Cn2c(=O)n(CC(F)(F)F)c3ccncc32)cc2cc(Cl)ccc21 — patients with high MCH (RSV-infected infants; concentration not given, mid-high dose cohort): 0%
CC(C)c1nc(CN(C)C(=O)N[C@H](C(=O)N[C@@H](Cc2ccccc2)C[C@H](O)[C@H](Cc2ccccc2)NC(=O)OCc2cncs2)C(C)C)cs1 — AUC(0-24) (healthy human volunteers, plasma; oral, dose not given, alone, pravastatin interaction study): 4.42 µg·h/mL
CCCCCCCCCCCCCCCC[N+](C)(C)Cc1ccccc1 — intrinsic clearance (substrate depletion; human liver microsomes; 0.5 µM, 0 to 3 h, 37 °C, added: NADPH): 0.63 mL/h/mg protein
CC(C)C[C@H](NC(=O)[C@H](CCC(=O)O)NC(=O)[C@H](CCC(=O)O)NC(=O)[C@H](CC(=O)O)NC(=O)[C@H](CCC(=O)O)NC(=O)[C@H](CCC(=O)O)NC(=O)[C@H](CCC(=O)O)NC(=O)[C@@H](N)CC(=O)O)C(=O)O — concentration (rat, CSF; intranasal, 5.5 mg/kg, 180 min, below quantification limit, estimated): 0.225 ng/mL
CN1CC[C@H](c2c(O)cc(O)c3c(=O)cc(-c4ccccc4Cl)oc23)[C@H](O)C1 — maximum tolerated concentration (zebrafish embryos; immersion, 72 h): 2 µM
CC1(C)S[C@@H]2[C@H](NC(=O)[C@@H](C(=O)O)c3ccsc3)C(=O)N2[C@H]1C(=O)O — measured concentration (rat plasma; 30 ng/mL, -20 °C to room temperature, three freeze-thaw cycles): 31.5 ± 1.7 ng/mL
CN1CCC(Nc2ncc3ncnc(Nc4ccc(F)c(Cl)c4)c3n2)CC1 — intrinsic clearance (Gottingen minipig, male, liver S9 without NADPH; 1 µM, pH 7.4): 127 ± 7.08 mL/min/kg
[123I]c1cncc(OC[C@@H]2CCN2)c1 — tissue/plasma ratio (SPECT; human, thalamus; intravenous bolus plus infusion, 7.7 mCi; relative to: plasma): 118
CCCCCOc1ccc(-c2ccc(-c3ccc(C(=O)N[C@H]4C[C@@H](O)[C@@H](O)NC(=O)[C@@H]5[C@@H](O)[C@@H](C)CN5C(=O)[C@H]([C@@H](C)O)NC(=O)[C@H]([C@H](O)[C@@H](O)c5ccc(O)cc5)NC(=O)[C@@H]5C[C@@H](O)CN5C(=O)[C@H]([C@@H](C)O)NC4=O)cc3)cc2)cc1 — patients without hepatic or GI adverse events (adult patients; iv, dose not given, 2, during treatment): 78.8%
CSCC[C@@H]1NC(=O)[C@H](CC(=O)O)NC(=O)CNC(=O)[C@H](CCCNC(=N)N)NC(=O)[C@H](C)NC(=O)[C@H](CCC(=O)O)NC(=O)[C@H](CCCNC(=N)N)NC(=O)[C@@H]2CSSC[C@@H]3NC(=O)[C@H](CO)NC(=O)[C@H]([C@@H](C)O)NC(=O)[C@@H]4CCCN4C(=O)[C@H](C)NC(=O)[C@H](Cc4c[nH]c5ccccc45)NC(=O)[C@H](CC(=O)O)NC(=O)CNC(=O)[C@H](CCCNC(=N)N)NC(=O)CNC(=O)[C@H](CCC(N)=O)NC(=O)[C@@H]4CCCN4C(=O)[C@@H](NC(=O)CNC(=O)C(C)F)CSSC[C@H](NC(=O)CNC(=O)[C@H](C)NC(=O)[C@H](CC(C)C)NC(=O)[C@H](CSSC[C@@H](C(=O)NCC(N)=O)NC(=O)[C@H]([C@@H](C)O)NC(=O)[C@H](CCCNC(=N)N)NC(=O)[C@@H]4CCCN4C1=O)NC(=O)[C@H](CC(=O)O)NC(=O)[C@H](CO)NC(=O)[C@H](CC(=O)O)NC(=O)[C@H](CCC(N)=O)NC(=O)[C@H](CO)NC3=O)C(=O)N[C@@H](C(C)C)C(=O)N2 (some centres unmarked) [fluorine-18 labelled] — tissue uptake (nude mice U-87 MG xenograft, spleen; intravenous, 0.5 h): 0.88 ± 0.06 %ID/g
NC(=O)c1nc(F)c[nH]c1=O — solubility (UV-Vis spectrophotometry; supercritical CO2; 120 min, 318 K, 18 MPa, 790.18 kg/m^3): 367 µg/mL (≈ 2340 µM)
COc1ccc(-c2cc(=O)c3c(OC)c(OC)c(OC)c(OC)c3o2)cc1OC — tissue to peel content ratio (C57BL/6 mouse, male, kidney; oral, 1% w/w in diet, 6 weeks, orange peel extract diet; relative to: content in orange peel): 0.021%
CN[C@@](C)(C[18F])C(=O)O — tissue uptake (SCID mouse SK-OV-3 xenograft, spleen; 60 min, post injection): 11 ± 3.2 %ID/g
CCCCCOc1ccc(-c2cc(-c3ccc(C(=O)N[C@H]4C[C@@H](O)[C@@H](O)NC(=O)[C@@H]5[C@@H](O)[C@@H](C)CN5C(=O)[C@H]([C@H](O)CC(N)=O)NC(=O)[C@H]([C@H](O)[C@@H](O)c5ccc(O)c(OS(=O)(=O)O)c5)NC(=O)[C@@H]5C[C@@H](O)CN5C(=O)[C@H]([C@@H](C)O)NC4=O)cc3)no2)cc1 — AUC(0-tau) (human paediatric patients 6 to sample C years, plasma; intravenous, 3 mg/kg once daily, day 7, median): 249 µg·h/mL
CC(=O)N[C@H](CCCCNC(=O)C(C)F)C(=O)N[C@@H](CS)C(=O)N[C@@H](CS)C(=O)N[C@@H](CCC(=O)O)C(=O)N[C@@H](Cc1c[nH]cn1)C(=O)N[C@H](Cc1ccccc1)C(=O)N[C@@H](CCCNC(=N)N)C(=O)N[C@@H](Cc1c[nH]c2ccccc12)C(=O)N[C@@H](CS)C(=O)N[C@@H](CCCNC(=N)N)C(=O)N1CCC[C@H]1C(=O)N[C@H](C(N)=O)C(C)C (some centres unmarked) [fluorine-18 labelled] — tumour uptake (male C57BL/6 mice, B16-F10 tumour, tumour; intravenous, 2 h): 2.12 ± 1.08 %ID/g
CC(C)C(=O)c1cn(CC(=O)COc2ccc(Oc3ccccc3)cc2)c2ccc(C(=O)O)cc12 — inhibition of carbonyl reduction (porcine liver S9 fraction; 20 µM, 30 min, added: BNPP 1 mM): ~45%
CC(C)C[C@@H]1NC(=O)[C@@H](NC(=O)CN)CSSC[C@@H]2NC(=O)[C@@H]3CSSC[C@@H](C(=O)N[C@@H](CC(N)=O)C(=O)N[C@@H](Cc4ccccc4)C(=O)N[C@@H](CO)C(=O)N[C@@H](Cc4ccccc4)C(N)=O)NC(=O)[C@H](CC(C)C)NC(=O)[C@H](CCCCN)NC(=O)[C@H](Cc4ccccc4)NC(=O)[C@H](CC(C)C)NC(=O)[C@H](CCCCN)NC(=O)[C@H](CO)NC(=O)[C@H](CSSC[C@H](NC(=O)[C@H](CCCCN)NC(=O)[C@H](Cc4c[nH]c5ccccc45)NC(=O)[C@H](Cc4c[nH]c5ccccc45)NC(=O)[C@H](Cc4ccccc4)NC(=O)[C@H](CCC(=O)O)NC1=O)C(=O)N[C@@H](CC(N)=O)C(=O)N1CCC[C@H]1C(=O)N[C@@H](CC(N)=O)C(=O)N[C@@H](CC(=O)O)C(=O)N[C@@H](CC(=O)O)C(=O)N[C@@H](CCCCN)C(=O)N3)NC(=O)[C@H](CCCCN)NC(=O)[C@H](CC(C)C)NC(=O)[C@H](CCCCN)NC(=O)[C@@H]1CCCN1C(=O)[C@H](CCCNC(=N)N)NC2=O — retained fraction (ultrafiltration, HPLC; saline without serum; 50 µM, 10 min): 70%
amyloid beta-42 Met35-sulfone — time to fibril formation (electron microscopy; sodium phosphate buffer; 10 µM, pH 7.4, 25 °C, agitation 200 rpm): 24 h
Cc1cccc2c1ccc1cc(C(C)C)ccc12 — internal concentration (zebrafish embryos, whole fish tissue; waterborne, 30 µM, 24 hpf, 1% DMSO): ~500 µM
Cn1c(COP(=O)(NCCBr)NCCBr)cnc1[N+](=O)[O-] — blood-to-plasma ratio (human blood; 0.2 and 2 µM, 0.5 h, 37 °C): 1.61
CCCCCOc1ccc(-c2cc(-c3ccc(C(=O)N[C@H]4C[C@@H](O)[C@@H](O)NC(=O)[C@@H]5[C@@H](O)[C@@H](C)CN5C(=O)[C@H]([C@H](O)CC(N)=O)NC(=O)[C@H]([C@H](O)[C@@H](O)c5ccc(O)c(OS(=O)(=O)O)c5)NC(=O)[C@@H]5C[C@@H](O)CN5C(=O)[C@H]([C@@H](C)O)NC4=O)cc3)no2)cc1 — clearance (infants on ECMO; intravenous, multiple doses median): 0.333 mL/min/kg
CC[C@H](C)[C@H](NC(=O)[C@H](CCCCN)NC(=O)[C@H](CCCCN)NC(=O)[C@H](C)NC(=O)[C@@H](NC(=O)[C@H](CCCCN)NC(=O)[C@H](C)NC(=O)[C@H](C)NC(=O)[C@@H](NC(=O)CNC(=O)[C@H](C)NC(=O)[C@@H](NC(=O)[C@H](CCCCN)NC(=O)[C@@H]1CCCN1C(=O)[C@H](Cc1ccccc1)NC(=O)[C@@H](N)Cc1ccccc1)C(C)C)C(C)C)C(C)C)C(=O)N[C@@H](Cc1ccccc1)C(=O)N[C@H]1CSSC[C@@H](C(=O)O)NC(=O)[C@H](CCCCN)NC(=O)[C@H](CCCCN)NC(=O)[C@H](CO)NC(=O)[C@H]([C@@H](C)CC)NC(=O)[C@H]([C@@H](C)O)NC1=O — HC10 (haemolysis; horse erythrocytes; 2 h, 37 °C): 4.59 µM

Repeated from above:
CCCCCOc1ccc(-c2ccc(-c3ccc(C(=O)N[C@H]4C[C@@H](O)[C@@H](O)NC(=O)[C@@H]5[C@@H](O)[C@@H](C)CN5C(=O)[C@H]([C@@H](C)O)NC(=O)[C@H]([C@H](O)[C@@H](O)c5ccc(O)cc5)NC(=O)[C@@H]5C[C@@H](O)CN5C(=O)[C@H]([C@@H](C)O)NC4=O)cc3)cc2)cc1 — patients without hepatic or GI adverse events (adult patients; iv, dose not given, 2, during treatment): 78.8%
